Measurements collected from several papers.
Lines come from different studies, so protocols differ. “And” joins repeats or separate records; there may be more than shown.

[BH3-][P+]1(c2ccccc2)CCCCC1  necrotic cells (HCT-116; annexin V/PI flow cytometry; IC50, 72 h): 0.55%
Cc1ncsc1-c1ccc(C(C)NC(=O)C2CC(O)CN2C(=O)C(NC(=O)CCCCCCCCCCN2CCCC(Nc3ncc(Cl)c(Nc4ccccc4S(=O)(=O)C(C)C)n3)C2)C(C)(C)C)cc1 (stereo not shown)  log2 fold change (22Rv1; RNA-seq, refers to: MOB3A mRNA; concentration not given; reference: DMSO): -2.11
O=C(C[Se]C(=O)c1ccccc1Nc1ccccc1)Nc1cccc(C(F)(F)F)c1  GI50 (NCI60 breast subpanel; NCI60 five-dose screen): 1990 nM
CC(=O)NCC(=O)N[C@@H](Cc1ccccc1)C(=O)N[C@@H](Cc1ccccc1)C(=O)N[C@@H](Cc1ccc(O)cc1)C(=O)NCC(=O)N[C@@H](Cc1ccc(O)cc1)C(=O)NCC(=O)N[C@@H](CO)C(=O)N[C@@H](CO)C(=O)N[C@@H](CO)C(=O)N[C@@H](CCCNC(=N)N)C(=O)N[C@@H](CCCNC(=N)N)C(=O)N[C@@H](C)C(=O)N1CCC[C@H]1C(=O)N[C@@H](CCC(N)=O)C(=O)N[C@H](C(=O)O)[C@@H](C)O  EdU-positive cells (mouse dermal papilla cells; 100 nM, 48 h): 26.5%
CCn1nc(Cl)c2c1-c1cnc(N)c(c1)O[C@H](C)c1cc(F)ccc1-c1nn(C)cc1C2  Emax (NCI-H2228 (EML4-ALK variant 3); cell viability): 29.4%
O=C(C[Se]C(=O)c1ccc2ccccc2c1)Nc1cccc(C(F)(F)F)c1  mean growth percent (NCI60 breast subpanel; cell growth; 10 µM, 48 h, one-dose): -64.3%
COc1cc(/C=C/C(=O)/C=C(O)/C=C/c2ccc(OCC(=O)N3CCOCCOCCOCC3)c(OC)c2)ccc1OCC(=O)N1CCOCCOCCOCC1  inhibition (U-251; cell growth or viability, SRB; 25 µM): 54.2%
CC(C)(C)c1cc(-c2ccc3cc4ccccc4nc3n2)nc(-c2ccc3cc4ccccc4nc3n2)c1.[Cl-].[Cl-].[Ru+2].c1ccc2cc3nc4c5cccnc5c5ncccc5c4nc3cc2c1  EC50 (B16-F10; photocytotoxicity, resazurin; visible light 400-700 nm, 20 mW, 100 J/cm2): 1920 nM
Cc1cc(Cl)cc(-c2ccnc3cc(CN4C(=O)C5C(C4=O)C5(C)C)sc23)c1C[C@@H]1CNCCO1 (stereo partly shown)  G2/M phase cells (CHP-212 resistant; PI flow cytometry; 0.3 µM, 24 h): 12.1%
COC(=O)c1cc(NC2=NC(=O)C(=Cc3ccc(N(C)C)cc3)S2)ccc1OC(C)=O  fold change (MCF7; refers to: TRIP13 mRNA; 0.81 µM (IC50), 24 h; reference: DMSO): 0.444
CCOc1cncc(-c2ccc(NC(=O)C3(c4ccnc(NS(=O)(=O)C5CC5)n4)CCOCC3)nc2)n1  IC50 (SU-DHL-4; cell growth or viability, ATP luminescence; 72 h): 356 nM
CC(C)(C)c1cc(-c2ccc3cccnc3n2)nc(-c2ccc3cccnc3n2)c1.[Cl-].[Cl-].[Ru+2].c1cnc2c(c1)ccc1cccnc12  phototoxicity index (B16-F10; resazurin; added: light 633 nm, 100 J/cm2; reference: dark EC50 over light EC50): 1
N#Cc1cccc(/C=C/C(=O)c2ccc(O)cc2)c1  fold change (U-87 MG; refers to: ABT1; concentration not given; reference: untreated): 0.055
COC(=O)[C@H](C)NC(=O)[C@H](C)NC(=O)c1csc(-c2cccnc2)n1  EC50 (OCI; cell viability): 7200 nM
CC1(C)CC[C@@]2(CO)C(=C3C=C[C@@H]4[C@@]5(C)CC[C@H](O)[C@@](C)(CO)[C@@H]5CC[C@@]4(C)[C@]3(C)C[C@@H]2O)C1  relative ROS fluorescence (HepG2, SIRT1 siRNA; flow cytometry; concentration not given, high dose; reference: control cells): 0.587 and 1.33 and 0.48
Cn1ncc2cc(-c3cncc(Cl)c3N3CCC4(CCNC4=O)CC3)ccc21  fold change in expression (LS174T; microarray, refers to: ADA; concentration not given, 4 h; reference: untreated cells): 1.04
Cc1nc(Nc2ncc(C(=O)Nc3c(C)cccc3Cl)s2)cc(N2CCN(C(=O)CN)CC2)n1  early apoptotic cells (KU812; flow cytometry; concentration not given, 3 h): 10.4% and 9.14% and 10.7%
CNS(=O)(=O)Nc1nccc(Cc2c(C)c3ccc(Oc4ncccc4F)cc3oc2=O)c1F  IC50 (KU812; cell viability; 7 days): 1.07 nM
CC(C)c1ccc(N(C)c2ccc3c(c2)OCC[C@H]3CNc2cnccc2C(=O)O)cc1  IC50 (NCI-H2009; cell growth or viability, ATP luminescence; 7 days): ≥ 10000 nM
NC(=O)c1ccc(-c2ccccc2Cl)c2c3c([nH]c12)CCC(N)C3 (stereo not shown)  IC50 (HuCCT-1; cell growth or viability; 96 h): 5.06 nM
CSCC[C@H](N)C(=O)N[C@@H](C)C(=O)N[C@@H](CCCNC(=N)N)C(=O)N[C@@H](CCCNC(=N)N)C(=O)N[C@@H](CC(=O)O)C(=O)N[C@@H](CCCCN)C(=O)N[C@H](C(=O)N[C@@H](CC(=O)O)C(=O)N[C@@H](Cc1ccccc1)C(=O)N[C@@H](C)C(=O)N[C@@H](CCCNC(=N)N)C(=O)N[C@@H](CCCNC(=N)N)C(=O)N[C@@H](CCCNC(=N)N)C(=O)N[C@@H](CCCNC(=N)N)C(=O)NCCCCCC(=O)NCCCCC(NC(=O)CCCCCNC(=O)[C@H](CCCNC(=N)N)NC(=O)[C@H](CCCNC(=N)N)NC(=O)[C@H](CCCNC(=N)N)NC(=O)[C@H](CCCNC(=N)N)NC(=O)[C@H](C)NC(=O)[C@H](Cc1ccccc1)NC(=O)[C@H](CC(=O)O)NC(=O)[C@@H](NC(=O)[C@H](CCCCN)NC(=O)[C@H](CC(=O)O)NC(=O)[C@H](CCCNC(=N)N)NC(=O)[C@H](CCCNC(=N)N)NC(=O)[C@H](C)NC(=O)[C@@H](N)CCSC)[C@@H](C)O)C(=O)NCCCCC(NC(=O)C(CCCCNC(=O)CCCCCNC(=O)[C@H](CCCNC(=N)N)NC(=O)[C@H](CCCNC(=N)N)NC(=O)[C@H](CCCNC(=N)N)NC(=O)[C@H](CCCNC(=N)N)NC(=O)[C@H](C)NC(=O)[C@H](Cc1ccccc1)NC(=O)[C@H](CC(=O)O)NC(=O)[C@@H](NC(=O)[C@H](CCCCN)NC(=O)[C@H](CC(=O)O)NC(=O)[C@H](CCCNC(=N)N)NC(=O)[C@H](CCCNC(=N)N)NC(=O)[C@H](C)NC(=O)[C@@H](N)CCSC)[C@@H](C)O)NC(=O)CCCCCNC(=O)[C@H](CCCNC(=N)N)NC(=O)[C@H](CCCNC(=N)N)NC(=O)[C@H](CCCNC(=N)N)NC(=O)[C@H](CCCNC(=N)N)NC(=O)[C@H](C)NC(=O)[C@H](Cc1ccccc1)NC(=O)[C@H](CC(=O)O)NC(=O)[C@@H](NC(=O)[C@H](CCCCN)NC(=O)[C@H](CC(=O)O)NC(=O)[C@H](CCCNC(=N)N)NC(=O)[C@H](CCCNC(=N)N)NC(=O)[C@H](C)NC(=O)[C@@H](N)CCSC)[C@@H](C)O)C(N)=O)[C@@H](C)O (stereo partly shown)  osteoclast formation (mouse C57BL/6 BMMs; 0.1 µM, 3 days, added: RANKL; reference: untreated control): 63%
CCN(CC)CC(=O)Nc1cccc(-n2cc(-c3ccc4ccc(-c5cn(-c6cccc(NC(=O)CN(CC)CC)c6)nn5)cc4c3)nn2)c1  fold regulation (RCC4; PCR angiogenesis array, refers to: AKT1; 5 x IC50, 6 h, normoxia; reference: untreated): -1.33
CN1CCCNC(=O)c2cccc(c2)C(=O)NCCCN(C)CCCNc2cccc3c2C(=O)c2cccc(c2C3=O)NCCC1  log2 fold change (SAS; RNA-Seq, refers to: DNAJB11 mRNA; 1 µM, 6 h; reference: untreated cells): -0.912
O=C(C[Se]C(=O)c1cccnc1Nc1cccc(C(F)(F)F)c1)Nc1cccc(C(F)(F)F)c1  GI50 (NCI60 breast subpanel; NCI60 five-dose screen): 2040 nM
COC1CN([C@H]2CC[C@H]([C@@]3(C)Oc4c(Cl)cc(C(=O)NCc5c(SC)cc(C)[nH]c5=O)c(C)c4O3)CC2)C1  GI50 (RT-4; cell growth or viability, ATP luminescence; 18 days): > 10000 nM
C=CC(=O)N1CCCC(n2c(=O)c3ncccc3n(Cc3ccc(Oc4ccccc4)cc3)c2=O)C1 (stereo not shown)  log2 fold change (Rec1; refers to: TXNIP; concentration not given; reference: untreated): -0.68
Cc1ccncc1.[Cl-].[Cl-].[Ru+2].c1cc(-c2ccc3cccnc3n2)nc(-c2ccc3cccnc3n2)c1.c1ccc2cc3nc4c5cccnc5c5ncccc5c4nc3cc2c1  EC50 (B16-F10; resazurin; added: light 733 nm, 9 mW, 100 J/cm2): 2140 nM
COCCCCCNc1nc(NCCCCCCN(C)C)c2cc(NC(=O)/C=C/CN(C)C)ccc2n1  viability (MCF7; CellTiter-Glo; 0.3906 µM, 48 h, unit not given; reference: DMSO-treated cells): 1.06 and 1.05 and 1.16
